Assay results of several laboratories.
Numbered parts are unrelated; each lists some results of a single study.

Study 1 — technique: protein-binding microarray; form: double-stranded DNA, one strand shown; sample: in vitro; tested at: 2200 nM top; notes: 60-bp whole probe; added: salmon DNA 0.4 mg/ml; reference: random background probes; reading: higher = stronger binding
Target: Interferon regulatory factor 7, full length, phosphomimetic (IRF7, Homo sapiens, UniProt Q92985, residues 1-503, S471D/S472D/S475D/S476D/S477D/S483D/S484D/S487D)
Chain of UniProt Q92985 (whole entry, unmodified, looked up): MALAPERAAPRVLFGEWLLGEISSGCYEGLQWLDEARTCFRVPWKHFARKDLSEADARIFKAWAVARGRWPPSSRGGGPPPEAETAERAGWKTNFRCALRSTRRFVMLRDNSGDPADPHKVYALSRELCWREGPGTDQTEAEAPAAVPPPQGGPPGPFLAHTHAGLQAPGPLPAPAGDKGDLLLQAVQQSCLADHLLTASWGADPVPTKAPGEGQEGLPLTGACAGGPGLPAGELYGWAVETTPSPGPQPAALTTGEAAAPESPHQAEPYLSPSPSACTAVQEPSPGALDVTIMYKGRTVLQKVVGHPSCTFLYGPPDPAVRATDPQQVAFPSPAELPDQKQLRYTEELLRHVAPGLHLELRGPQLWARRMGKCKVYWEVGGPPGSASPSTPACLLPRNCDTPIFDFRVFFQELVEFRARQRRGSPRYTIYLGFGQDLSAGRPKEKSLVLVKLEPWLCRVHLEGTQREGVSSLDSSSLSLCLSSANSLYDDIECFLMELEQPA
For `GCCTAGCACAGATATCTGCACTCTCATGTGTGCTAGGTCTTGATTCGCTTGACGCTGCTG`, “fitted relative affinity” read 0.732 z-score.
Under “fitted relative affinity”, `GCCTAGCACGACGGTTTCGGGTTTCGGCACGTGCTAGTCTTGATTCGCTTGACGCTGCTG` is recorded as 8.73 z-score.
`GCCTAGCACGACGAACTCGGGTATCGAGACGTGCTAGTCTTGATTCGCTTGACGCTGCTG` — result for “fitted relative affinity”: 0.0554 z-score.

Study 2 — technique: protein binding microarray; form: double-stranded DNA, one strand shown; sample: in vitro; tested at: not given; reference: not given; reading: higher = stronger binding
Target: Histone acetyltransferase KAT6A, winged helix 1, GST fusion (KAT6A, Homo sapiens, UniProt Q92794, residues 1-85)
Notes: 8-mer, flanks averaged, mean of 2 arrays, mostly near background
Construct (chain): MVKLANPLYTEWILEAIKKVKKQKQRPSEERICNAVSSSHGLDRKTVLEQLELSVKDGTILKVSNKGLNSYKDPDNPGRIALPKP
The E-score of `GATTCTCA` is reported as 0.00787.
The E-score of `AGACGTCC` is reported as -0.0659.
With `CTTTGACA` the E-score was -0.222.

Study 3 — technique: universal PBM; form: double-stranded DNA, one strand shown; sample: in vitro; tested at: 600 nM; reading: higher = stronger binding
Target: Sal-like protein 4, full length isoform A (SALL4, Homo sapiens, UniProt Q9UJQ4, residues 1-1053)
Chain of UniProt Q9UJQ4 (whole entry, looked up): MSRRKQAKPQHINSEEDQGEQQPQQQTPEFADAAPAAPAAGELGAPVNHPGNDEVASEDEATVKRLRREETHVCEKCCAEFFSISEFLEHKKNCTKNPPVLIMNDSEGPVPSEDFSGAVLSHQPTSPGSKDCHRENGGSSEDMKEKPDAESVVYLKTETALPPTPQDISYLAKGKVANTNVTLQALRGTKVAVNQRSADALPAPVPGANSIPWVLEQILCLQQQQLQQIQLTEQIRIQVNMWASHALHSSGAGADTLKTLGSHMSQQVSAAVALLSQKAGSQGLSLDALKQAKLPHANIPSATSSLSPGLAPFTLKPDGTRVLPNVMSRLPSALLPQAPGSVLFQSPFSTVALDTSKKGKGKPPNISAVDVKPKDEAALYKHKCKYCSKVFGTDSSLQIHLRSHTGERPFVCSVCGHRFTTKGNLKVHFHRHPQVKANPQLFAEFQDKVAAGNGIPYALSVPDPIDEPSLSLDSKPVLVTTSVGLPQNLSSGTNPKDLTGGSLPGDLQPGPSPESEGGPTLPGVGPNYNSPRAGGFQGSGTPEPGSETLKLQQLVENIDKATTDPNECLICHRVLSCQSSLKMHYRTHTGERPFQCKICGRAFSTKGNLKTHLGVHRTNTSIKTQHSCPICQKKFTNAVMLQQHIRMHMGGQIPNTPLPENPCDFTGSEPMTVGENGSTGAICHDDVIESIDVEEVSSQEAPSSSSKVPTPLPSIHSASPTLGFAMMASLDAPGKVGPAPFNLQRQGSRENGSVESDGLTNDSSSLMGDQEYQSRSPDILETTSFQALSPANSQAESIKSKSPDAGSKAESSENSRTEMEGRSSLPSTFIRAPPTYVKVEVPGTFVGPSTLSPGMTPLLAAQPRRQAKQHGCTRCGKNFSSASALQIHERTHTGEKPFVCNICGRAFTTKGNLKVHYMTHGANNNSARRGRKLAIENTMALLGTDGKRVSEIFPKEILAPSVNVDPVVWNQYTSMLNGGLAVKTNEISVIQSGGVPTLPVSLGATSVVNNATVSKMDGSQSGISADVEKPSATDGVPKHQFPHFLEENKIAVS
Notes: 8-mer, flanks averaged, mean of replicates
With `CTCAACAC` the E-score was 0.0446.
With `ACAATCTA` the E-score was 0.173.
With `CATCAGGA` the E-score was 0.048.
`ATGCACCC` gave an E-score of -0.1.

Single results of other studies
`PhoQ, residues 284 288 289 292 302 303 SQSLSM` gave a fold induction of 11.8 (PhoP, residues 12 14 15 18 19 NNFVT (Escherichia coli, UniProt P23836); Sort-seq, item: YFP reporter; E. coli; PhoQ-PhoP variant library, added: 10 µM Mg2+; reference: high Mg2+ state, higher = stronger signaling).
